Measured values pooled from the literature.
Each line is one published result; not all experiments were run side by side. “And” joins repeats or separate records; there may be more than shown. ≈ marks a conversion by molar mass, not a printed value.
Organism: Staphylococcus aureus

CC1=C[C@@H](C)[C@H]2[C@@H]3C(=O)C(Cl)(Cl)C(=O)[C@H](C)C(=O)O[C@@H](C)/C=C/C=C\[C@@H](C)[C@@H]3C=C[C@@H]2C1 — MIC (USA300 JE2 saeR transposon mutant): 0.025 µg/mL (≈ 0.0521 µM)
c1ccc(CCNC2CCCc3c2[nH]c2ccc(C4CCCCC4)cc32)cc1 (centres unmarked) — MIC (microbial growth, broth dilution; ATCC29213): 2 µg/mL (≈ 5.37 µM)
N=C(N)NCCC[C@H](NC(=O)[C@H](Cc1c[nH]c2ccccc12)NC(=O)[C@H](CCCNC(=N)N)NC(=O)[C@H](CCCNC(=N)N)NC(=O)[C@@H]1CCCN1C(=O)[C@H](CCCCN)NC(=O)[C@@H](N)CCCNC(=N)N)C(=O)N[C@@H](Cc1c[nH]c2ccccc12)C(=O)N[C@@H](Cc1c[nH]c2ccccc12)C(=O)N1CCC[C@H]1C(=O)N[C@@H](CCCCN)C(=O)N[C@@H](CCCNC(=N)N)C(=O)N1CCC[C@H]1C(=O)O — log bacterial load (09057, female BALB/c mice, sepsis, kidney; intraperitoneal, 20 mg/kg): 6.01 log(CFU/g) and 5.16 log(CFU/g) and 5.22 log(CFU/g) and 5.73 log(CFU/g) and 4.92 log(CFU/g) and 5.4 log(CFU/g)
OB(O)c1ccc(C(F)(F)F)s1 — biofilm formation (crystal violet; USA300 wild type; 1 µM; relative to: wild type untreated): 66.2% and 77.6%
CC(C)CCCCCCCCC/C=C/C(=O)N[C@@H](CC(=O)O)C(=O)N[C@H]1CNC(=O)[C@@H]2CCCN2C(=O)[C@H](C(C)C)NC(=O)[C@@H](CN)NC(=O)CNC(=O)[C@H](CC(=O)O)NC(=O)CNC(=O)[C@H](CC(=O)O)NC(=O)[C@H](CC(=O)O)NC(=O)[C@H]2CCCCN2C1=O — MIC (broth microdilution; VISA LIM strain 2, Mueller-Hinton broth, Mg2+ 10 mg/L; 16 h, added: Ca2+ 10 mM): 1 µg/mL (≈ 0.783 µM)
CCCCCCCCCCCCCC(=O)N[C@H]1C(=O)N[C@@H](CN)C(=O)N[C@@H](CO)C(=O)N[C@@H](Cc2ccc(O)cc2)C(=O)O[C@H]1C — MIC (SH1000; added: lysophosphatidylethanolamine, molar ratio 0.5): 2 µg/mL
C=C(NC(=O)c1csc(-c2nc3c(cc2O)-c2nc(cs2)C(=O)NC(C(C)O)C(=O)NC(=C(C)OC)c2nc(cs2)C(=O)NC2c4nc(cs4)C(=O)NC(COC(=O)c4c5c6c(cccc6n4O)COC(=O)C(OC4CC(C)(O)C(N(C)C)C(C)O4)C2OC5)c2nc-3cs2)n1)C(N)=O (centres unmarked) — MIC (MRSA strain 1): 0.0156 µg/mL (≈ 0.0109 µM)
CC[C@H](C)[C@@H]1NC(=O)[C@@H]([C@@H](C)O)NC(=O)CNC(=O)[C@H](CC(=O)O)NC(=O)CNC(=O)[C@H](CC(=O)O)NC(=O)CNC(=O)[C@H]2CCCCN2C(=O)[C@@H](NC(=O)[C@H](CC(=O)O)NC(=O)/C=C/CCCCCCCCCC(C)C)CNC(=O)[C@@H]2CCCN2C1=O — MIC (broth microdilution; VISA LIM strain 2, Mueller-Hinton broth, Mg2+ 10 mg/L; 16 h, added: Ca2+ 2.5 mM): 4 µg/mL (≈ 3.21 µM)

Excerpt of the above:
CCCCCCCCCCCCCC(=O)N[C@H]1C(=O)N[C@@H](CN)C(=O)N[C@@H](CO)C(=O)N[C@@H](Cc2ccc(O)cc2)C(=O)O[C@H]1C — MIC (SH1000; added: lysophosphatidylethanolamine, molar ratio 0.5): 2 µg/mL
